{"data": "Results from different studies", "note": "Protocols differ between the studies behind these lines. Numbers after ± are the reported error."}
{"Compound": "CCCC[C@H](NC(C)=O)C(=O)N[C@H]1CCC(=O)NC[C@@H](C(=O)N[C@@H](Cc2c[nH]c3ccccc23)C(N)=O)NC(=O)[C@H](CCCNC(=N)N)NC(=O)[C@@H](Cc2ccccc2)NC(=O)[C@H](Cc2c[nH]cn2)NC1=O", "test system": "beagle dog, female, plasma", "setting": "subcutaneous, 8.0 mg/kg daily, day 14", "measurement": "Tmax", "result": "0.63 h"}
{"Compound": "O=C(O)c1ccccc1Nc1cccc(C(F)(F)F)c1", "assay": "mitochondrial swelling", "test system": "BALB/cByJ female mouse liver mitochondria", "setting": "30 min, with: succinate + rotenone", "scale": "baseline: CaCl2 maximal swelling", "measurement": "EC20", "result": "> 200 µM"}
{"Compound": "C[C@H](Oc1ccc(-c2nc(-c3ccc4[nH]cnc4c3)no2)cc1C(F)(F)F)C(F)(F)F.Cl", "test system": "cynomolgus monkey aneurysm model, plasma", "setting": "0.1 mg/kg once daily, 4 weeks dosing", "measurement": "predose plasma concentration", "result": "11 ± 2.5 nM"}
{"Compound": "C[C@@]12C[C@@]3(O)O[C@@H](O1)[C@]1(COC(=O)c4ccccc4)[C@H]3C[C@@]12O[C@@H]1O[C@H](CO)[C@@H](O)[C@H](O)[C@H]1O", "test system": "extracted rat plasma, autosampler", "setting": "11250 ng/mL, 24 h, 4 °C, post-preparative stability, high QC", "measurement": "accuracy", "result": "100 % nominal"}
{"Compound": "CCN(CC)CC(=O)Nc1c(C)cccc1C", "assay": "mitochondrial swelling", "test system": "BALB/cByJ female mouse liver mitochondria", "setting": "30 min, with: succinate + rotenone", "scale": "baseline: CaCl2 maximal swelling", "measurement": "EC20", "result": "> 800 µM"}
{"Compound": "Cc1ccc(NC(=O)c2ccc(CN3CCN(C)CC3)cc2)cc1Nc1nccc(-c2cncc(-c3oncc3C)c2)n1", "test system": "healthy volunteers, plasma", "setting": "oral, 25.0 mg once daily, day 1, 7-day dosing, mean", "measurement": "AUC(0-tau)", "result": "12.7 µg·h/mL"}
{"Compound": "Cn1cnc2c1c(=O)[nH]c(=O)n2C", "assay": "in situ brain perfusion", "test system": "rat", "setting": "no efflux inhibition", "measurement": "log intrinsic permeability", "result": -5}
{"Compound": "COc1cccc(-c2ccc(NC(=O)C3=C(C(=O)O)CCC3)c(F)c2)c1", "test system": "male human, plasma", "setting": "oral, 50 mg, multiple doses, once daily", "measurement": "Vd/F", "result": "13 L"}
{"Compound": "CC(=O)N[C@@H](Cc1ccccc1)C(=O)N[C@H]1CCCNC(=O)[C@H](CCCNC(=N)N)NC(=O)[C@H](Cc2c[nH]c3ccccc23)NC(=O)[C@@H](CC2CCCCC2)NC(=O)[C@@H]2CCCN2C1=O", "assay": "two-compartment model", "test system": "C57BL/6J mouse, plasma", "setting": "1 mg/kg single dose", "measurement": "elimination half-life", "result": "~0.333 h"}
{"Compound": "CNCc1ccc(-c2[nH]c3cc(F)cc4c3c2CCNC4=O)cc1", "test system": "human cancer patients, plasma", "setting": "intravenous, 4 mg/m2, day 4, with: temozolomide 100", "measurement": "AUC(0-24 h)", "result": "0.278 µg·h/mL"}
{"Compound": "CNC(=O)c1cc(Oc2ccc(NC(=O)Nc3ccc(Cl)c(C(F)(F)F)c3)cc2)ccn1", "assay": "LC-MS/MS", "test system": "nude mouse subcutaneous tumour model, tumour tissue", "setting": "intratumoral, 2 mg/kg, PDC 1 miR-3609", "measurement": "t1/2", "result": "47.1 ± 3.54 h"}
{"Compound": "Cc1ccco1", "assay": "metabolic activation to acetaldehyde", "test system": "pooled human liver microsomes", "setting": "10 min, high-affinity phase excluded, high concentrations", "measurement": "Km", "result": "1160 µM"}
{"Compound": "O=C(O)CCc1cccc(O)c1O", "test system": "human, fasted baseline, cerebrospinal fluid", "measurement": "median concentration", "result": "15.8 nM"}
{"Compound": "COc1cc(/C=C/C(=O)CC(=O)/C=C/c2ccc(O)c(OC)c2)ccc1O", "assay": "I-125 label", "test system": "C57BL/6J mouse, cerebellum", "setting": "intranasal vs intraperitoneal, 10 µg/mouse IN, 100 µg/mouse IP, 4 h", "scale": "baseline: intranasal over intraperitoneal", "measurement": "brain uptake ratio", "result": 7.64}
{"Compound": "[2H]C([2H])([2H])Oc1cc2c(cc1OC([2H])([2H])[2H])C1CC(=O)C(CC(C)C)CN1CC2 (stereo not drawn)", "assay": "measured: deuterated total (α+β)-HTBZ", "test system": "healthy human volunteers, plasma", "setting": "oral, 18 mg single dose, standard meal", "measurement": "dose-normalized Cmax", "result": "2.6 ng/mL"}
{"Compound": "CCCC[C@@H]1NC(=O)[C@@H](NC(=O)[C@H](CCC(=O)O)NC(=O)CNC(=O)CN2CCN(CC(=O)O)CCN(CC(=O)O)CCN(CC(=O)O)CC2)CCCCNC(=O)C[C@@H](C(N)=O)NC(=O)[C@H](C(C)C)NC(=O)[C@@H]2CCCN2C(=O)[C@H](CCCNC(=N)N)NC(=O)CNC(=O)[C@H](Cc2c[nH]c3ccccc23)NC(=O)[C@H](CCCNC(=N)N)NC(=O)[C@@H](Cc2ccccc2)NC(=O)[C@H](Cc2c[nH]cn2)NC(=O)[C@H](CCC(=O)O)NC1=O [indium-111 labelled]", "test system": "C57 mice, B16F10 lung metastasis, urine", "setting": "intravenous, 0.037 MBq, 4 h", "measurement": "urinary excretion", "result": "85.7 ± 1.66%"}
{"Compound": "CN(C/C=C/C#CC(C)(C)C)Cc1cccc2ccccc12", "assay": "cytochrome c release, ELISA", "test system": "BALB/cByJ female mouse liver mitochondria", "setting": "30 min", "scale": "baseline: alamethicin maximal release", "measurement": "EC20", "result": "> 50 µM"}
{"Compound": "O=C(O)c1cccc(CN2CN(C3CCCCC3)C3(CCN(CCCC(=O)c4ccccc4)CC3)C2=O)c1", "test system": "rat Sprague Dawley female", "setting": "1000 mg/kg/day, 4 to 8 min after start, first session", "measurement": "rearing activity", "result": "2 counts"}
{"Compound": "CC(C)c1c(C(=O)Nc2ccccc2)c(-c2ccccc2)c(-c2ccc(F)cc2)n1CC[C@@H](O)C[C@@H](O)CC(=O)O", "assay": "mitochondrial swelling", "test system": "BALB/cByJ female mouse liver mitochondria", "setting": "30 min, with: succinate + rotenone", "scale": "baseline: CaCl2 maximal swelling", "measurement": "EC20", "result": "5.6 µM"}
{"Compound": "O=C(O)[C@H](c1ccccc1Cl)N1CCc2sccc2C1", "assay": "HPLC-MS/MS", "test system": "feline citrate plasma", "setting": "72 h, 4 °C, storage stability", "measurement": "deviation from nominal", "result": "7%"}
{"Compound": "Cn1c(=O)[nH]c2[nH]c(=O)n(C)c2c1=O", "test system": "human hemodialysis patients, plasma ultrafiltrate", "setting": "pre-treatment", "scale": "baseline: hemodialysis over normal subjects", "measurement": "free concentration ratio", "result": 8}
{"Compound": "CCCCCCCCCCCCNC", "assay": "liver S9 substrate depletion", "test system": "rainbow trout liver S9", "setting": "six-surfactant mixture", "measurement": "in vivo intrinsic clearance", "result": "42 mL/h/g liver"}
{"Compound": "C#C[C@]1(CO)O[C@@H](n2cnc3c(N)nc(F)nc32)C[C@@H]1O", "test system": "human, plasma", "setting": "oral, 10 mg once weekly, week 1", "measurement": "AUC(0-168 h)", "result": "713 nM·h"}
{"Compound": "CC[C@@H]1C(=O)N(C)c2cnc(Nc3ccc(C(=O)N[C@H]4CC[C@H](N5CCN(CC6CC6)CC5)CC4)cc3OC)nc2N1C(C)C", "assay": "non-compartmental analysis", "test system": "human, plasma", "setting": "intravenous infusion, 350 mg (first infusion)", "measurement": "Vss", "result": "4430 L"}
{"Compound": "COc1cccc2c1C(=O)c1c(O)c3c(c(O)c1C2=O)C[C@@](O)(C(C)=O)C[C@@H]3O[C@H]1C[C@H](N)[C@H](O)[C@H](C)O1", "assay": "cytochrome c release, ELISA", "test system": "BALB/cByJ female mouse liver mitochondria", "setting": "30 min", "scale": "baseline: alamethicin maximal release", "measurement": "EC20", "result": "47.2 µM"}
{"Compound": "CN1CC2CCC(C1)N2Cc1ccc(-c2cnc3[nH]cc(-c4cccc(Cl)c4)c3c2)cc1", "assay": "metabolic stability", "test system": "CD-1 mouse, liver microsomes", "setting": "20 µM, pH 7.4", "measurement": "half-life", "result": "> 2 h"}
{"Compound": "CC(C)NC[C@@H](C(=O)N1CCN(c2ncnc3c2[C@H](C)C[C@H]3O)CC1)c1ccc(Cl)cc1", "test system": "human, hepatic impairment Healthy (Child-Pugh), plasma", "setting": "oral, 100 mg single, geometric mean", "measurement": "CL/F", "result": "314 L/h"}
{"Compound": "CCNC(=O)[C@@H]1CCCN1C(=O)[C@H](CCCNC(=N)N)NC(=O)[C@H](CC(C)C)NC(=O)[C@@H](CC(C)C)NC(=O)[C@H](Cc1ccc(O)cc1)NC(=O)[C@H](CO)NC(=O)[C@H](Cc1c[nH]c2ccccc12)NC(=O)[C@H](Cc1c[nH]cn1)NC(=O)[C@@H]1CCC(=O)N1", "test system": "membrane in isopropyl myristate", "setting": "1 mg/mL, 12 h, pH 6.8, 37 °C, receiver 0.5% Tween 80", "measurement": "permeated fraction", "result": "24.3%"}
{"Compound": "Cn1cnc2c(F)c(Nc3ccc(Br)cc3Cl)c(C(=O)NOCCO)cc21", "test system": "ESRD on hemodialysis, plasma", "setting": "oral, 50 mg single dose, dosed after dialysis", "measurement": "AUC", "result": "1.88 µg·h/mL"}
{"Compound": "CN1CCN(c2ccc3nc(-c4c(N)c5c(F)cccc5[nH]c4=O)[nH]c3c2)CC1", "test system": "patients, plasma", "setting": "oral, 300 mg, day 1, AUC 0-24 h minimum concurrent dosing, with: gemcitabine and capecitabine", "measurement": "AUC", "result": "1.53 µg·h/mL"}
{"Compound": "O=C(NC[C@H]1CN(c2ccc(N3CCOCC3=O)cc2)C(=O)O1)c1ccc(Cl)s1", "test system": "Sprague-Dawley rat, male, plasma", "setting": "oral, 10 mg/kg, with: naringenin 10 mg/kg/day oral, 2 weeks", "measurement": "apparent volume Vz/F", "result": "16.2 ± 8.42 L/kg"}
{"Compound": "CCN(CC)CCNC(=O)c1c(C)[nH]c(/C=C2\\C(=O)Nc3ccc(F)cc32)c1C", "test system": "human, plasma", "setting": "oral, 15 mg/m2, day 14", "measurement": "median trough plasma concentration", "result": "29.7 ng/mL"}
{"Compound": "NCCCC[C@@H]1NC(=O)[C@@H](Cc2c[nH]c3ccccc23)NC(=O)[C@H](c2ccccc2)NC(=O)[C@@H]2C[C@@H](OC(=O)NCCN)CN2C(=O)[C@H](Cc2ccccc2)NC(=O)[C@H](Cc2ccc(OCc3ccccc3)cc2)NC1=O", "assay": "radioimmunoassay", "test system": "healthy human male volunteers, plasma", "setting": "subcutaneous, 100 µg", "measurement": "alpha half-life", "result": "1.6 ± 0.3 h"}
{"Compound": "Cc1nc2cccc(OCC(C)(C)C(=O)NC(C)C)c2c(N)c1C(=O)O", "test system": "male Sprague-Dawley rat, plasma", "setting": "dietary, 30 mg/kg/day, day 90", "measurement": "Tmax", "result": "0 h"}
{"Compound": "CCc1cc2c(C(=O)c3cc(Br)c(O)c(Br)c3)c(O)ccc2o1", "assay": "metabolic stability", "test system": "Sprague-Dawley rat, liver microsomes", "setting": "1 µM, pH 7.4", "measurement": "microsomal CLint", "result": "70.2 µL/min/mg"}
{"Compound": "CS/C(S)=N/CCCC[S+](C)[O-] (racemic)", "assay": "RT-PCR", "test system": "rat, mammary gland", "setting": "oral gavage, 200 mg/kg, four days, unit not given", "scale": "baseline: vehicle", "measurement": "mRNA level", "result": 2.34}
